# Results of several laboratories.
# Each numbered part is a random draw from the data of one study; scales do not carry over between parts. “And” joins repeats or separate records; there may be more than shown.
# UniProt P14921, sequence (whole entry, looked up): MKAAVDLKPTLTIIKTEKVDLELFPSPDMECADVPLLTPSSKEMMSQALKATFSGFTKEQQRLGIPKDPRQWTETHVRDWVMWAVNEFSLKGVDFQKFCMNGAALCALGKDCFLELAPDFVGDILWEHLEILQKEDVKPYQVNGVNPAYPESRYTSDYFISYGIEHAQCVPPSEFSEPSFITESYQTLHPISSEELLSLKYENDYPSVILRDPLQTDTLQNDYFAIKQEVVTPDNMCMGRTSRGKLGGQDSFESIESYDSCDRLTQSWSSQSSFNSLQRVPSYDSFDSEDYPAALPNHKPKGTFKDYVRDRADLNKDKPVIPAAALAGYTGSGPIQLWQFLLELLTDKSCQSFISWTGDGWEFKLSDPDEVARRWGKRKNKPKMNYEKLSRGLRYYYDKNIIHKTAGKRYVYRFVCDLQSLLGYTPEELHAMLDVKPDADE

# Study 1
# Cell line: HEK-293T
# Effect on: pseudovirus infection
# Organism: VSV pseudotyped with SARS-CoV-2 spike
# Concentration: 10 µM
# Time: 16 h
# Reference: vehicle-treated
SMILES,GFP-positive cells
NC(=O)Cc1cccc(C(=O)c2ccccc2)c1N,84.5%
O=C1CC[C@@]2(O)[C@H]3Cc4ccc(O)c5c4[C@@]2(CCN3CC2CC2)[C@H]1O5,76.4%
CN(Cc1cnc2nc(N)nc(N)c2n1)c1ccc(C(=O)N[C@@H](CCC(=O)O)C(=O)O)cc1,29.9%
N#CC1(c2ccc(NC(=O)c3cccnc3NCc3ccncc3)cc2)CCCC1,98.9%

# Study 2
# Target: RING finger protein unkempt homolog, zinc fingers 1-6, GST-SBP tag (UNK, Homo sapiens, UniProt Q9C0B0, residues 30-357)
# Technique: RNA Bind-n-Seq
# Molecule type: RNA
# Medium: in vitro
# Concentration: not given
# Notes: RNA with constant flanks, human-mouse chimeric sites, ends assumed
# Reference: input RNA pool
# Direction: higher = stronger binding
# Residues (chain): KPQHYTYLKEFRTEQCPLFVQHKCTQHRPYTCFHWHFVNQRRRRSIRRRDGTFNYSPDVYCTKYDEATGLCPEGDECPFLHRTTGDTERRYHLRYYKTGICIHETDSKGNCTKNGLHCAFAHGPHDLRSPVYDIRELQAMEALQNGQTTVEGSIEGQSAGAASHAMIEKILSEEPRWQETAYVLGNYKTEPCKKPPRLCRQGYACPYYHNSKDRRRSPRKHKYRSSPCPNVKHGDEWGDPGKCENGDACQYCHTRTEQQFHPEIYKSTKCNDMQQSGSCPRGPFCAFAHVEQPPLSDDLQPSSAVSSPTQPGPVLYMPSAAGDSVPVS
Oligonucleotide,bound/input enrichment [ratio]
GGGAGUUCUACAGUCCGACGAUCCUGUUUUGACAGCCACACAAUCUUGGCAUGUAUUAAGAAAAAAAAAAAUCCCUGUUGAAGUAGUUUUUCCACCUAUCAGCACUGAGUAAAUGCCAUAACUCCGCGGAAAUGGUCUAAAUACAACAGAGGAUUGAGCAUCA,0.314
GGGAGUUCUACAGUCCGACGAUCCGCUGGCCCAAGCUGAUGGACUCUGAUGGCCUCCAUCUCUCAGGCACGUGUGCCUUCUCUUAGUCCCUGUUUUCGGGAUGUUAUGAAUCUCAGUACUGUUUGACAGAAGCACCAGCUUUGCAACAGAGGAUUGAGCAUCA,0.133
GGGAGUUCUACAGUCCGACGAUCCUCAGAGAUGUGGCAUAUCAGUAUGUGAAAAAGGGGGCUCGUAUAUUUGUGGAAGGGAAAAUAGACUAUGGCGAGUACAUGGAUAAAAAUAAUGUGAGGCGGCAAGCAACAACAAUCAUACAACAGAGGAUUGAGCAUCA,0.64
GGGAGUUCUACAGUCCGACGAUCGAAAGAGAACUAAAGCAACUAAUAGAGAAGAGGAUUGGCAAAGAGAAUUUCAUAGAGAAACUAGGAUUUAUUAGCAAAACAUGAGUUUAUUCCAGAGCGUCUCAGAAACCCCAGCCAAACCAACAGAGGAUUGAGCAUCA,9.85
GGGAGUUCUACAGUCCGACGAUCUCUUUAAAUGCACUACAACCUUUUCUGACAGUGCUUUAUGGAGUAAAGAUCCACGUUCAAGCUCAAAGAGCAAAGGCUUUGCACGGAGCUCAAACAUCUGAUGAAGAAAGAUUUCUGAGACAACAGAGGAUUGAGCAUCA,0.0662
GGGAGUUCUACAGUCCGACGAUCAUGGAGAAGGAUUCUCUGCCCCGCUUUGUGCGCUCUGAAUUUUAUAAGGAGCUAAUCAAGUAGUCAUUUAGCCAGGCUAUGAAAUCAUGCCCUGUGAGUUGAGUUACAUCCUUUGUAGCACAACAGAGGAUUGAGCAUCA,0.503
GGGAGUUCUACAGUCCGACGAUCCUCAUGGCUGCAGAAACAGGAAGUGGAAAAACUGGUGCAUUUAGUAUUCCCGUUAUCCAGAUAGUUUAUGAAACUCUGAAAGACCAACAGGAAGGAAAAAAAGGAAAAACAACUAUUAAACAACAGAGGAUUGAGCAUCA,1.13
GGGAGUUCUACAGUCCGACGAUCGCUCCUCCCCGCUCUGCAGCCUGGGGACACUGGGCUGGGACCAGAAUCCAGCUUUCUUUUAAAACUCUCAGUGUAACUUCUUUUUCUGACAUUUCAUUUUUUUUUUAUAGUGUAUUUUUUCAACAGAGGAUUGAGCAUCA,17.8

# Study 3
# Target: Centromere-binding protein 1, full length, N-terminal tag (CBF1, Saccharomyces cerevisiae, UniProt P17106, residues 1-351)
# UniProt P17106, sequence (whole entry, looked up): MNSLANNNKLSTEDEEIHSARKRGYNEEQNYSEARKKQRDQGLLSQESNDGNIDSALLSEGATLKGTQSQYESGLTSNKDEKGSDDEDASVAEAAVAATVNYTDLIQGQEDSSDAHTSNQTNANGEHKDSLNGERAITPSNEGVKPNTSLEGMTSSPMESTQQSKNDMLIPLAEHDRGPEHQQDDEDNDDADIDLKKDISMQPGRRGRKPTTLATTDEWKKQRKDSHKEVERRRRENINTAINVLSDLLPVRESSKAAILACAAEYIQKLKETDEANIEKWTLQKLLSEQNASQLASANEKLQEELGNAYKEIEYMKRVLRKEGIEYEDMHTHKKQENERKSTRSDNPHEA
# Technique: protein-binding microarray
# Molecule type: double-stranded DNA, one strand shown
# Medium: in vitro
# Concentration: 0.8 µM
# Notes: whole 60-bp probe, no competitor
# Direction: higher = stronger binding
Oligonucleotide,fluorescence intensity
CTAAAAGAGCATTAGGGTCACGTGTATACATTCTTCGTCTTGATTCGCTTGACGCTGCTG,13800 a.u.
GAATCATGGAAGTGGCACGTTTGTGCTTCGGCGTAGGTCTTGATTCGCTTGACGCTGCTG,562 a.u.
GAAAGTCTCATTGCCTTCGTGCCAAAAAATCTGTAGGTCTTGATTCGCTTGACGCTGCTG,504 a.u.
CTATTTTGGAAGTTTCACGATATCGATAATGCTTTCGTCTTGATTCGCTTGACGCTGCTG,540 a.u.
CTAAGTAGACCAATTGACGTCATTTACTGAAACTTCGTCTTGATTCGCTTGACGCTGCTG,516 a.u.
GAATTTTTTCCGCTCGTCGTGGTGGCATGCGCTTAGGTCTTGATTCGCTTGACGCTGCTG,532 a.u.
CTAGGCGAAACAAAGGTGATGAAAGTTTCTTCTTTCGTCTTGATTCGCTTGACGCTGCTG,517 a.u.
GAAGAAAAGTTCGGTAACATCAAATCAGTGCTTTAGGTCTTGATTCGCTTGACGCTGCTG,522 a.u.

# Study 4
# Target: Replicase polyprotein 1ab, nsp13 helicase (rep, Severe acute respiratory syndrome coronavirus 2, UniProt P0DTD1)
# Action: inhibitor
# Concentration: 20 µM
SMILES,inhibition [%]
C#C[C@]1(O)CC[C@H]2[C@@H]3CCC4=CC(=O)CC[C@@H]4[C@H]3CC[C@@]21C,-1.47
COc1cc(C[C@H]2c3cc(OC)c(OC)cc3CCN2C)c(Oc2cc3c(cc2OC)-c2c(OC)c(OC)cc4c2[C@H](C3)N(C)CC4)cc1OC,21.4
C=CC(=O)c1ccc2ccccc2c1,99.1
CCn1cc(C(=O)O)c(=O)c2cc3c(cc21)OCO3,0.16
N[C@@H](Cn1ccc(=O)n(Cc2ccccc2C(=O)O)c1=O)C(=O)O,8.17
CN(C)NC(=O)CCC(=O)O,2.46
CCn1cc(C(=O)O)c(=O)c2cc(F)c(N3CCNCC3)nc21,-2.88
O=c1[nH]c(=O)c2ccccc2o1,10.4
CC(N)CCCC(C)(C)O (centres unmarked),-0.79
C[C@]12CC[C@H]3[C@@H](CCC4=CC(=O)CC[C@@H]43)[C@@H]1CC[C@@H]2O,-2.74
CC(=O)OCC(=O)[C@H]1CC[C@H]2[C@@H]3CCC4=CC(=O)CC[C@]4(C)[C@H]3CC[C@]12C,4.45
Oc1c(I)cc(I)c2cccnc12,-2.82
C#C[C@]1(O)CC[C@H]2[C@@H]3CCC4=CCCC[C@@H]4[C@H]3C(=C)C[C@@]21CC,5.73
Oc1cc2c(cc1O)C(Cc1cccc3ccccc13)NCC2 (centres unmarked),13.8
Cc1cccc(NC(=O)N[C@@H]2N=C(c3ccccc3)c3ccccc3N(C)C2=O)c1,1.67
CC1(C)O[C@@H]2C[C@H]3[C@@H]4CCC5=CC(=O)C=C[C@]5(C)[C@H]4[C@@H](O)C[C@]3(C)[C@]2(C(=O)CO)O1,5.9
O=C(c1ccc(OCCN2CCCCC2)cc1)c1c(-c2ccc(O)cc2)sc2cc(O)ccc12,8.65
CCOC(=O)C1=C[C@]2(CC)CCCN3CCc4c(n1c1ccccc41)[C@@H]32,4.96
CC[C@@]1([C@H]2O[C@H]([C@H]3O[C@@](O)(CO)[C@H](C)C[C@@H]3C)C[C@H]2C)CC[C@H]([C@@]2(C)CC[C@]3(C[C@H](O)[C@@H](C)[C@@H]([C@H](C)[C@H](OC)[C@@H](C)C(=O)O)O3)O2)O1,8
O=c1[nH]nc(Sc2ncc([N+](=O)[O-])s2)n1-c1ccc2c(c1)OCCO2,96.8
COc1ccc2[nH]c(I)c(CCNC(C)=O)c2c1,-0.45
Cc1cccc(C)c1NC(=O)c1ccccc1C(=O)O,4.83
C#C[C@]1(O)CC[C@H]2[C@@H]3CCc4cc(OC5CCCC5)ccc4[C@H]3CC[C@@]21C,0.53
CC(O)CCCCn1c(=O)c2c(ncn2C)n(C)c1=O (racemic),1.84
COC(=O)N1CC[C@@H]2[C@H]1CCC[C@@]2(O)C#Cc1cccc(C)c1,12.1

# Study 5
# Target: Replicase polyprotein 1ab, main protease (rep, Severe acute respiratory syndrome coronavirus 2, UniProt P0DTD1)
# Effect on: enzyme activity
# Action: inhibitor
# Concentration: 20 µM
# Notes: hit confirmation, no DTT
Structure (SMILES),inhibition
O=C(O)[C@@H](S)[C@@H](S)C(=O)O,98.4% and 110%
O=C(/C=C/c1ccc2ccc(C(F)(F)F)cc2n1)c1ccncc1,79.2%
O=C(O)[C@H]1O[C@@H](Oc2cc3oc(-c4ccccc4)cc(=O)c3c(O)c2O)[C@H](O)[C@@H](O)[C@@H]1O,54%
COCCCOc1ccnc(C[S+]([O-])c2nc3ccccc3[nH]2)c1C (centres unmarked),94.2%

# Other studies, line by line
# Technique: protein-binding microarray
# Molecule type: double-stranded DNA, one strand shown
# Medium: in vitro
# Concentration: not given
# Notes: k-mer, scored over probes, only values ≥0.25
# Direction: higher = stronger binding
# CTCF: Transcriptional repressor CTCF (CTCF, Homo sapiens, UniProt P49711, residues 1-727, full length assumed)
# UniProt P49711, sequence (whole entry, looked up): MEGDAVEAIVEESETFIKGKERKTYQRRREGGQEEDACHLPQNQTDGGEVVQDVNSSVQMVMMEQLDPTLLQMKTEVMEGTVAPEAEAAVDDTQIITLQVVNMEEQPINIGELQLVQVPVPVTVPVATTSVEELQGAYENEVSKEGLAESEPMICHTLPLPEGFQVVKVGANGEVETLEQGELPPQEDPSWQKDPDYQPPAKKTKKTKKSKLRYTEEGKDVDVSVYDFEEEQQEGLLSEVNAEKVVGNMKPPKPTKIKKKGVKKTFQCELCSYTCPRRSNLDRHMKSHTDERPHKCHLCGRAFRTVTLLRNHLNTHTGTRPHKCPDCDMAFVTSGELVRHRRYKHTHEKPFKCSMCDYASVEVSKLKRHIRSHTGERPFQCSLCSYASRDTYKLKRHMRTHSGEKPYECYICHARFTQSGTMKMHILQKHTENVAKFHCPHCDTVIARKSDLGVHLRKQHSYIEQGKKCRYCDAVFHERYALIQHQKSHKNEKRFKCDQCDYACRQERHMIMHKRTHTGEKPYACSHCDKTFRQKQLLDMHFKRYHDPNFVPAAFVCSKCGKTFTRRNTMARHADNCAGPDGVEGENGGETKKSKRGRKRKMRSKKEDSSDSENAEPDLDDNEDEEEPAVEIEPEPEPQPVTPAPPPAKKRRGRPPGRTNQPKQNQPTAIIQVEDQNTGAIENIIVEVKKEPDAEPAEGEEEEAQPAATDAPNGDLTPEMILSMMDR
Oligonucleotide,target,E-score
CTCGTGC,"Microphthalmia-associated transcription factor, full length (MITF, Homo sapiens, UniProt O75030-10, residues 1-413)",0.449
GGATGCCA,"Protein C-ets-1 (ETS1, Homo sapiens, UniProt P14921, residues 1-441, full length assumed)",0.289
AGTATGAA,CTCF,0.251
ACAATAAA,CTCF,0.258

# Repeated from above (study 4):
SMILES,inhibition [%]
C[C@]12CC[C@H]3[C@@H](CCC4=CC(=O)CC[C@@H]43)[C@@H]1CC[C@@H]2O,-2.74
CC(=O)OCC(=O)[C@H]1CC[C@H]2[C@@H]3CCC4=CC(=O)CC[C@]4(C)[C@H]3CC[C@]12C,4.45
Oc1c(I)cc(I)c2cccnc12,-2.82
C#C[C@]1(O)CC[C@H]2[C@@H]3CCC4=CCCC[C@@H]4[C@H]3C(=C)C[C@@]21CC,5.73
Oc1cc2c(cc1O)C(Cc1cccc3ccccc13)NCC2 (centres unmarked),13.8
Cc1cccc(NC(=O)N[C@@H]2N=C(c3ccccc3)c3ccccc3N(C)C2=O)c1,1.67
CC1(C)O[C@@H]2C[C@H]3[C@@H]4CCC5=CC(=O)C=C[C@]5(C)[C@H]4[C@@H](O)C[C@]3(C)[C@]2(C(=O)CO)O1,5.9
O=C(c1ccc(OCCN2CCCCC2)cc1)c1c(-c2ccc(O)cc2)sc2cc(O)ccc12,8.65
